Experimental data from different studies.
Compare with care: the assays were run in different laboratories.
Target: Serine/threonine-protein kinase Nek5 (NEK5, Homo sapiens, UniProt Q6P3R8)

COc1cc(Nc2nccc(-c3cnn4nc(OC)ccc34)n2)cc(C(F)(F)F)c1
remaining binding (binding, competition with immobilised ligand; 1 µM): 57%

C=CC(=O)N1CCc2ccc(-n3c(=O)ccc4cnc5ccc(-c6cnn(C)c6)cc5c43)cc21
remaining binding (KINOMEscan; 1 µM; reference: DMSO control): 100%

COc1cc(Nc2nc(C)cc(-c3cnn4nc(OC)ccc34)n2)cc(C(F)(F)F)c1
remaining activity (inhibitor; 1 µM; reference: control): 96%

C=CC(=O)N1CCCC(n2c(=O)c3ncccc3n(Cc3ccc(Oc4ccccc4)cc3)c2=O)C1 (stereo not drawn)
remaining binding (cell-free assay, competition with immobilised ligand; 1 µM): 89%

Nc1ncc(-c2cc(-c3cnn(CC(F)(F)F)c3)ncc2F)nc1C(=O)NC1CNCC(F)C1 (stereo not drawn)
remaining activity (enzyme activity; 1 µM; reference: DMSO control): 74.4%

Cc1cnc2nc1Nc1cccc(c1)COC/C=C/COCc1cc(ccc1OCCN1CCOCC1)N2
remaining binding (binding; 0.1 µM): 85%

CCn1cc(C(=O)O)c(=O)c2c(N)c(F)c(NC3CCCCC3)cc21
inhibition (kinase activity; 0.1 µM, together with: ATP at Km): 37.2%

O=C(Cc1ccc(OCc2ccccc2)cc1)NC1(C(=O)O)CCN(C(=O)c2ccc(-c3cccc(Cl)c3)cc2)CC1
activity vs control (enzyme activity, inhibitor; 10 µM): 103%

Cc1ccc(-c2c(/C=C(\C#N)C(=O)NC(C)C)n(CCCO)c3ncnc(N)c23)cc1
remaining binding (cell-free assay, competition with immobilised ligand; 1 µM): 100%

CNC(=O)C1CCN(c2cc(C)c(F)cc2NC(=O)c2ccc(-c3cc(O)ccc3C)c(C)c2)CC1
remaining binding (binding, competition with immobilised ligand; 1 µM): 100%

COc1c(Cl)cccc1Nc1c(-c2ccncc2C#C[C@@]2(C)CCCN2C(=O)/C=C/CN(C)C)[nH]c2c1C(=O)NCC2
remaining binding (binding, competition with immobilised ligand; 3 µM): 95%

CC(C)=CC1OC(C)(C)C2C=C3C(=O)C(Cl)=CC(O)C3C3C(O)C4OC4C(=O)C132 (stereo not drawn)
remaining binding (cell-free assay, competition with immobilised ligand; 10 µM): 75%

Nc1ncc2c(n1)-c1c([nH]c3ccc(C4=CCOCC4)cc13)CCC2
remaining binding (binding, competition with immobilised ligand; 1 µM): 100%

CNC1C[S+]2CC[S+]3CC[S+](C1)[Ru-4]321([N]=C=S)[n]2c3ccc(OC)cc3c3c4c(c5cc(F)c[n+]1c5c32)C(=O)NC4=O (stereo not drawn)
remaining binding (KinomeScan; 0.1 µM; reference: untreated): 81%

CCN1CCN(Cc2ccc(C(=O)Nc3ccc(C)c(NCc4cnc5[nH]ccc5c4OC)c3)cc2C(F)(F)F)CC1
remaining binding (binding, competition with immobilised ligand; 1 µM): 48%

Repeated from above:
CCN1CCN(Cc2ccc(C(=O)Nc3ccc(C)c(NCc4cnc5[nH]ccc5c4OC)c3)cc2C(F)(F)F)CC1
remaining binding (binding, competition with immobilised ligand; 1 µM): 48%

CCn1cc(C(=O)O)c(=O)c2c(N)c(F)c(NC3CCCCC3)cc21
inhibition (kinase activity; 0.1 µM, together with: ATP at Km): 37.2%
